# Results pooled from the literature.
# By UniProt entry, the sequences of proteins in these tests, tags left out. Residues count along the entry.
# UniProt P23953, whole entry, looked up: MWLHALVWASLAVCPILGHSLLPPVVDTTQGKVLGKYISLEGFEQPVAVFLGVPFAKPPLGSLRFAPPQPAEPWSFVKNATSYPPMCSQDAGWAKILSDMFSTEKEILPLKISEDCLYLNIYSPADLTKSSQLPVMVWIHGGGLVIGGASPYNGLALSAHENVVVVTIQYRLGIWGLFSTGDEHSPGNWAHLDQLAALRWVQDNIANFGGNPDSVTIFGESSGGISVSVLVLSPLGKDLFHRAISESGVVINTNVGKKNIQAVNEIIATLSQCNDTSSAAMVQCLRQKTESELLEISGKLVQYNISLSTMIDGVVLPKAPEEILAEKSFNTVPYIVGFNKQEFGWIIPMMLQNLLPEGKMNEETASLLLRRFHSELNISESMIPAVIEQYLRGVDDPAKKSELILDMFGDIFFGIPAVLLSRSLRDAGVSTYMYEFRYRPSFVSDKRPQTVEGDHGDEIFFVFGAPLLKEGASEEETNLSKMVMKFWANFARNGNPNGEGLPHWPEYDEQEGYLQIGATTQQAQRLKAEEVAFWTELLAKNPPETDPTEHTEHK
# UniProt Q3L245, 26-602 limits assumed: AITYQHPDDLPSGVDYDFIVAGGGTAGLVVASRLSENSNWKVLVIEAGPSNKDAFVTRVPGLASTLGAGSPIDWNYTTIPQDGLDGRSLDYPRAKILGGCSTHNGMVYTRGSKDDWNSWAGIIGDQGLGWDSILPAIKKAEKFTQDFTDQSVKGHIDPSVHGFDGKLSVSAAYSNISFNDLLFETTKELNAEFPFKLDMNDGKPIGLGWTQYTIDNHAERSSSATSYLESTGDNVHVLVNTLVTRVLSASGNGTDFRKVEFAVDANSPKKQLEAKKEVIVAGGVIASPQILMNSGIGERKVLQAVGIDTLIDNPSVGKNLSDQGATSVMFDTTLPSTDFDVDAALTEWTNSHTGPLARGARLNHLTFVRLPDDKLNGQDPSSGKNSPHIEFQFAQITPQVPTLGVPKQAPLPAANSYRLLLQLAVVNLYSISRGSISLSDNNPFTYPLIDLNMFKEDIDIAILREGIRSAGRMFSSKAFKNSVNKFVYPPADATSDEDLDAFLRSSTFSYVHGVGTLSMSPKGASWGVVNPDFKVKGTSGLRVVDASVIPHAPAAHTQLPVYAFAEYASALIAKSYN
# UniProt Q9GZQ6, whole entry: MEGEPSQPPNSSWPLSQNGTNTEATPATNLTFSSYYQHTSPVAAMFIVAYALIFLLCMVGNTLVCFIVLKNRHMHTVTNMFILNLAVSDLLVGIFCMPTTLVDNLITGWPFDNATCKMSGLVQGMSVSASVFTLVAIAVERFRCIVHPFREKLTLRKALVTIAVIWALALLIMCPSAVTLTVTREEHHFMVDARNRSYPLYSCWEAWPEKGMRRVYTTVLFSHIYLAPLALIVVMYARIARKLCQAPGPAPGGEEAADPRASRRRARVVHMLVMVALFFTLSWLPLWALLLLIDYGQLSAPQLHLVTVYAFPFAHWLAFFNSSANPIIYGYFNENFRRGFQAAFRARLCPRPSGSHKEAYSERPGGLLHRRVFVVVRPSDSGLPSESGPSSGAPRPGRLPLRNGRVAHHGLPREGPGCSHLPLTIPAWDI
# UniProt Q869C3, whole entry, looked up: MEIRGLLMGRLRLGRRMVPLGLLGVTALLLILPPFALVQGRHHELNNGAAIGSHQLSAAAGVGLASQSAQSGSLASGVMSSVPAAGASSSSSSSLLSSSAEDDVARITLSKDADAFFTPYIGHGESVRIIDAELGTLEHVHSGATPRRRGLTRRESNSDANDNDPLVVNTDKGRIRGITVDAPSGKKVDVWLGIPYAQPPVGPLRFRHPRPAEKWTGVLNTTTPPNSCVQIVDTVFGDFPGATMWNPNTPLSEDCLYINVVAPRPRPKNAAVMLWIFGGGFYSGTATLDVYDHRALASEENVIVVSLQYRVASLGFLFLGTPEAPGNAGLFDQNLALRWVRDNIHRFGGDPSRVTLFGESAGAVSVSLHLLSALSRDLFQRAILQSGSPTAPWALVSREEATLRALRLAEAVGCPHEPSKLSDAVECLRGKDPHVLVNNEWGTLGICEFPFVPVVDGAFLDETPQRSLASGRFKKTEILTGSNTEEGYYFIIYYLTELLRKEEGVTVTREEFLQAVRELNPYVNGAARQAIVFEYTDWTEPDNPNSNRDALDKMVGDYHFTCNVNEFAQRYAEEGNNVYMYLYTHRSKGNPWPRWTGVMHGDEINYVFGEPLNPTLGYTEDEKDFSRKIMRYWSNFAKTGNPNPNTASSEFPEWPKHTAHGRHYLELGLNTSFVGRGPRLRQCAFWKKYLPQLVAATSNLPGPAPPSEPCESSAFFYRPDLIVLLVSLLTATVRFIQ
# UniProt P41145, whole entry: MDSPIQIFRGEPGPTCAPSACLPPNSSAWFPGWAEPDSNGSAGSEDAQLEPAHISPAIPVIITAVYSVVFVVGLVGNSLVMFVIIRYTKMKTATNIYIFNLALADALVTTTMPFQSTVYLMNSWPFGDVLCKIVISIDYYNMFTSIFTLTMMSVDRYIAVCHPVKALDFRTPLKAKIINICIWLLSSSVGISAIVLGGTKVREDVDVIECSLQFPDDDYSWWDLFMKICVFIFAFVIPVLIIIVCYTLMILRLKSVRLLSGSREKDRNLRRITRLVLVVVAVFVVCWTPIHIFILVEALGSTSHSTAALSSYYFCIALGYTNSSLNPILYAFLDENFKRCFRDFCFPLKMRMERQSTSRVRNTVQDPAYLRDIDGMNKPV
# UniProt Q03311, whole entry, looked up: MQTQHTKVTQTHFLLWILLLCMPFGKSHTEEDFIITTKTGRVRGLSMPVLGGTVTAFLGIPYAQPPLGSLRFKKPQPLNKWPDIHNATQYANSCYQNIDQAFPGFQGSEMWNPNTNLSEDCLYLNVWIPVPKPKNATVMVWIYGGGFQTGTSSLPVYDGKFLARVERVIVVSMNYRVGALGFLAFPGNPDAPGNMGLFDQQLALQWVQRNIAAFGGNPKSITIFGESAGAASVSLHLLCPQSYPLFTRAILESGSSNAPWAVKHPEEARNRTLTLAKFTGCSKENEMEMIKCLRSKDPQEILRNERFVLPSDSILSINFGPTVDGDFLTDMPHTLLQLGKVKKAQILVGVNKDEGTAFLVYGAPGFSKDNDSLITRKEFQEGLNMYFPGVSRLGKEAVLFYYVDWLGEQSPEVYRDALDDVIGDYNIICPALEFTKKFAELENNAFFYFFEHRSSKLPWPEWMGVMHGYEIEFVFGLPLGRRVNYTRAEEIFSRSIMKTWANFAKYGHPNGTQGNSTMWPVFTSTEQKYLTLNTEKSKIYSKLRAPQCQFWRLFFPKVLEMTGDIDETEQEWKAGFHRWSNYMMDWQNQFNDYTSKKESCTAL
# UniProt P02770, 25-608 limits assumed: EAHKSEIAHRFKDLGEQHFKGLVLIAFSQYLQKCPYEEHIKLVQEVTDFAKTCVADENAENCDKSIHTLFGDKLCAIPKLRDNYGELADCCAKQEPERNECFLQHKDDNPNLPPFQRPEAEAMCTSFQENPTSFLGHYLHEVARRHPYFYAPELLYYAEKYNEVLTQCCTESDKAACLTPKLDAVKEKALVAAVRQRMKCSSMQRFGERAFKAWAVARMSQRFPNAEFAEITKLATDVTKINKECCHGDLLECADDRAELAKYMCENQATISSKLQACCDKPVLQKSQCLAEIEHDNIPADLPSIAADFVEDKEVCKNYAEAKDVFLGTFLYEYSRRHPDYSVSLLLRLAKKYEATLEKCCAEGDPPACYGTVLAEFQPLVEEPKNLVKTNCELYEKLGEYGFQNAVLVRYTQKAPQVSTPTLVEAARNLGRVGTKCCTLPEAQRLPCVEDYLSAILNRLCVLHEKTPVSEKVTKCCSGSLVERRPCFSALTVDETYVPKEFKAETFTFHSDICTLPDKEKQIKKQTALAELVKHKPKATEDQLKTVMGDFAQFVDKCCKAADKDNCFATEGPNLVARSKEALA
# UniProt P21836, whole entry, looked up: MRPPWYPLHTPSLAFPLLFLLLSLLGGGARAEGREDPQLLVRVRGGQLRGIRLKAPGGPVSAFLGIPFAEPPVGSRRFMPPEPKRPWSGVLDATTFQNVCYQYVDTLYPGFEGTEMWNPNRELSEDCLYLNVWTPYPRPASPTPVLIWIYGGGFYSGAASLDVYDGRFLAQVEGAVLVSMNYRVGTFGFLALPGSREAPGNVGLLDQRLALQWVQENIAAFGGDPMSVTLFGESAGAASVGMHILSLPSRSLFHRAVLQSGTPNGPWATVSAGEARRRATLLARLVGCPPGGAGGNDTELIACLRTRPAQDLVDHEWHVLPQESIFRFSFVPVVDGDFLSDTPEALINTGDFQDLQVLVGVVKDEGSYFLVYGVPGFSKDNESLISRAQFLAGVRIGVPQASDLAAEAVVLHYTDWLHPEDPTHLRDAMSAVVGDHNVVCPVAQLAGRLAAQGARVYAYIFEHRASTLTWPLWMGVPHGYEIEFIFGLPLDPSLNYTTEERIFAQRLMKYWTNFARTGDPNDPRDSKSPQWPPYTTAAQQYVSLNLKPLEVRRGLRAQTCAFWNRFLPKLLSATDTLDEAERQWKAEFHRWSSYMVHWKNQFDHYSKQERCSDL
# UniProt P36544, 23-502 limits assumed: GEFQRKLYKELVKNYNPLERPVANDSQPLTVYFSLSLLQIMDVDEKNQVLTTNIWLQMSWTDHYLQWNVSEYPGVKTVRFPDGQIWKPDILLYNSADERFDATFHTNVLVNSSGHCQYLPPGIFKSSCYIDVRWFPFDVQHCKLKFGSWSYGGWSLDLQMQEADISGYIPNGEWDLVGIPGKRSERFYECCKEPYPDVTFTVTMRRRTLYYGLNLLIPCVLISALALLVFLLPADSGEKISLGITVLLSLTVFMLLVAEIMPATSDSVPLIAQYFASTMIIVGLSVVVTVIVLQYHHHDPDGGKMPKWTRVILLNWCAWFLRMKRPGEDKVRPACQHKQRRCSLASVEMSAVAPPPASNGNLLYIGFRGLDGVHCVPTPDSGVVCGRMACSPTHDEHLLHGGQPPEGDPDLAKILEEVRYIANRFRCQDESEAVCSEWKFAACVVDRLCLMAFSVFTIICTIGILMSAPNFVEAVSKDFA
# Each line is one published result; not all experiments were run side by side. ± marks the error that the study gave.
# Ricin A chain: Ricin, A chain (Ricinus communis, UniProt P02879)
Substance,target,test,system,conditions,scale,measurement,result
O=C1c2c(O)c(=O)ccn2N([C@@H]2c3ccccc3SCc3c2ccc(F)c3F)[C@@H]2COCCN12,"RNA-directed RNA polymerase L, endonuclease domain (Dabie bandavirus, UniProt I0DF35, T128S)","protein thermostability, thermal shift",,"200 µM, added: Mn2+ 2 mM",baseline: protein with Mn2+ only,thermal shift,10.5 °C
CNC(=O)Oc1cccc2c1OC(C)(C)C2,"Ces1c (Mus musculus, UniProt P23953)",alpha-naphthyl acetate hydrolysis,"ES1+/+ mice, plasma","subcutaneous, 1.0 mg/kg, 0.5 h, toxicant challenge",,inhibition,94%
O[C@H]1[C@H](O)[C@@H](O)[C@H](O)[C@@H](O)[C@H]1O,Ricin A chain,SPR,,200 µM,,binding,no binding
ferrocenium hexafluorophosphate,"pdh1 (Macropsalliota meleagris, UniProt Q3L245)",electron acceptor,,"pH 8.5, 30 °C, added: 25 mM D-glucose",,Km,160 ± 40 µM
COc1cc(NC2(CNC(=O)CNC(=N)N)CCN(Cc3ccccc3)CC2)cc(OC)c1,"NPFFR1 (Homo sapiens, UniProt Q9GZQ6)",,,,baseline: mu and kappa opioid over NPFF1,selectivity ratio,7 to 43 fold
CCOP(=O)(OCC)Oc1ccc([N+](=O)[O-])cc1,"Ace (Anopheles gambiae, UniProt Q869C3)","enzyme inhibition, inhibitor",,,,k2,0.79 ± 0.07 min⁻¹
CN(C)[C@]1(c2ccccc2)CC[C@]2(CC1)OCCc1c3cc(F)ccc3[nH]c12,"OPRK1 (Homo sapiens, UniProt P41145)","cAMP, agonist",,human receptor,,Emax,98.1 ± 2.2%
CCOP(=O)(OCC)Oc1ccc([N+](=O)[O-])cc1,"Cholinesterase (Bche, Mus musculus, UniProt Q03311)",,"ES1+/+ mice, plasma","subcutaneous, 0.2 mg/kg, 0.5 h, toxicant challenge",,inhibition,70.5 ± 1.8%
[3H]diisopropyl fluorophosphate,"Albumin (Alb, Rattus norvegicus, UniProt P02770)",,,"19 µM, 1 h",baseline: commercial over native rat albumin,binding stoichiometry increase,~5 fold
Nc1nc2nc(C(=O)NCc3ccccn3)cnc2c(=O)[nH]1,Ricin A chain,differential scanning fluorimetry,,"500 µM, pH 7.5, 2 µM protein",,ΔTm,1 °C
NC(=O)c1ccc[n+]([C@@H]2O[C@H](COP(=O)([O-])OP(=O)(O)OC[C@H]3O[C@@H](n4cnc5c(N)ncnc54)[C@H](O)[C@@H]3O)[C@@H](O)[C@H]2O)c1,"Inosine-5'-monophosphate dehydrogenase (Clostridium perfringens, UniProt A0A127ELD1)",substrate,,"pH 8.0, 25 °C",,Km,370 ± 4 µM
CCOC(=O)/C=C/[C@H](C[C@@H]1CCNC1=O)NC(=O)[C@@H](CC(=O)[C@@H](NC(=O)c1cc(C)on1)C(C)C)Cc1ccc(F)cc1,"Replicase polyprotein 1ab, main protease (rep, Severe acute respiratory syndrome coronavirus 2, UniProt P0DTD1)",inhibitor,SARS-CoV-2,"40 µM, 48 h",baseline: vehicle,reporter signal reduction,~20%
CNC(=O)ON=C(C)SC,"Acetylcholinesterase (Cavia porcellus, UniProt D3YE96)",Ellman,,,,IC95,174 µM
CCOP(=S)(OCC)Oc1cc(C)nc(C(C)C)n1,"Ache (Mus musculus, UniProt P21836)",,"ES1+/+ mice, plasma","subcutaneous, 50.0 mg/kg, 2.0 h, toxicant challenge",,inhibition,88%
C[C@@H]1NC(=O)[C@H](CCCNC(=N)N)NC(=O)[C@H](CCCNC(=N)N)NC(=O)[C@H](Cc2c[nH]cn2)NC(=O)[C@H](CO)NC(=O)[C@H](CCCCN)NC(=O)[C@@H]2CSSC[C@H](NC(=O)CN)C(=O)N[C@@H](CSSC[C@@H](C(N)=O)NC(=O)[C@H](CCCNC(=N)N)NC1=O)C(=O)N[C@@H](CO)C(=O)N[C@@H](Cc1c[nH]cn1)C(=O)N1CCC[C@H]1C(=O)N[C@@H](C)C(=O)N2,"CHRNA7 (Homo sapiens, UniProt P36544)","ion current, antagonist",Xenopus oocytes,"10 µM, 5 min, added: acetylcholine",baseline: control,remaining response,13 ± 7%

# Some of these lines once more:
Substance,target,test,system,conditions,scale,measurement,result
CN(C)[C@]1(c2ccccc2)CC[C@]2(CC1)OCCc1c3cc(F)ccc3[nH]c12,"OPRK1 (Homo sapiens, UniProt P41145)","cAMP, agonist",,human receptor,,Emax,98.1 ± 2.2%
